Assay results of several laboratories.
Numbered parts are unrelated; each lists some results of a single study.

Series 1 — method: protein-binding microarray; form: double-stranded DNA, one strand shown; medium: in vitro; concentration: 2540 nM top; notes: 60-bp whole probe; added: salmon DNA 0.4 mg/ml; baseline: random background probes; direction: higher = stronger binding; all sequences stand within: GCCTAGCAC … GTCTTGATTCGCTTGACGCTGCTG
Target: Interferon regulatory factor 3, full length, phosphomimetic (IRF3, Homo sapiens, UniProt Q14653, residues 1-427, S386D/S396D/S398D/S402D/T404D/S405D)
UniProt Q14653, sequence (whole entry, unmodified, looked up): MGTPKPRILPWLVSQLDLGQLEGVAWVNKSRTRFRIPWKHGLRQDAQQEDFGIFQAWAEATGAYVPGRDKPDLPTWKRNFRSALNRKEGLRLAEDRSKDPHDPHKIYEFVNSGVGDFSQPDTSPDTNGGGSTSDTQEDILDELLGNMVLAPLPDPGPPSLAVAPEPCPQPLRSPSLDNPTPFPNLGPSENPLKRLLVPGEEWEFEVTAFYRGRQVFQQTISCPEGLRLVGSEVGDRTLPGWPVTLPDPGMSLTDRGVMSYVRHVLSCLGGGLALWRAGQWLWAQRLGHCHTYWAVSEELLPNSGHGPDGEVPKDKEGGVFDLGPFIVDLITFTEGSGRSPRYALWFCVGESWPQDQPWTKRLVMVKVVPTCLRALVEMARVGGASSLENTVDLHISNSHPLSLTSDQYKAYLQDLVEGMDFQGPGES
`GACGGCCTCCTACTGCTGACGTGCTAG`: “fitted relative affinity” -0.609 z-score.
`TCATTTCTCTGGTTCTTACTGTGCTAG` — result for “fitted relative affinity”: 2.2 z-score.
For `TCAACTAGGGCATTTAGAACTGTGCTA`, “fitted relative affinity” read -0.616 z-score.
`GACTGACTGGGGTATCGGGACGTGCTA` — result for “fitted relative affinity”: -0.473 z-score.
`CACCTTCTTCATCAAGGACAGTGCTAG` — result for “fitted relative affinity”: 2.03 z-score.
For `GACGGTTTCCGTTTCGGGACGTGCTAG`, “fitted relative affinity” read 8.85 z-score.

Series 2 — method: protein binding microarray; form: double-stranded DNA, one strand shown; medium: in vitro; concentration: not given; baseline: not given; direction: higher = stronger binding
Target: Histone acetyltransferase KAT6A, winged helix 2, GST fusion (KAT6A, Homo sapiens, UniProt Q92794, residues 85-181)
Notes: 8-mer, flanks averaged, mean of 2 arrays, mostly near background
Target sequence (chain): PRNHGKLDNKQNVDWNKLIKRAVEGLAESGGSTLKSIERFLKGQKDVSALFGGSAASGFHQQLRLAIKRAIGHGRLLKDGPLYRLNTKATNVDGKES
For `AAGGACCG`, the E-score was 0.0199.
With `AGCCAACC` the E-score was 0.142.
`GGACGGAA` gave an E-score of -0.071.
`CTGCATGA` has an E-score of -0.19.
`ACCATGAT` has an E-score of -0.184.
`CTAGTCAA` gave an E-score of -0.25.
`AGGCTAAG` gave an E-score of -0.123.

Series 3 — method: universal PBM; form: double-stranded DNA, one strand shown; medium: in vitro; concentration: not given; direction: higher = stronger binding
Target: Sal-like protein 4, full length isoform B (SALL4, Homo sapiens, UniProt Q9UJQ4-2, residues 1-616)
Notes: 8-mer, flanks averaged, mean of replicates
For `CCGGCCAA`, the E-score was -0.243.
`AGCGACAC` gave an E-score of -0.111.
`ATCCCGGC` has an E-score of -0.198.
The E-score of `ATTCTTTC` is reported as 0.156.
`ACCGAAGG` has an E-score of -0.0621.
For `GTGCCATA`, the E-score was 0.126.
`AGGGACTA` has an E-score of -0.113.
`CAGTAATA` has an E-score of 0.362.
`GGATAACA` gave an E-score of 0.0271.
With `AGAGTTGA` the E-score was 0.00768.
`ATCACGTC` gave an E-score of -0.00341.

Other studies, line by line
`PhoQ, residues 284 288 289 292 302 303 QWQEDG` has a fold induction of 5.58 (PhoP, residues 12 14 15 18 19 QWHVF (Escherichia coli, UniProt P23836); Sort-seq, item: YFP reporter; E. coli; PhoQ-PhoP variant library, added: 10 µM Mg2+; baseline: high Mg2+ state, higher = stronger signaling).

For quick reference, copied from above (series 2):
`CTAGTCAA` gave an E-score of -0.25.
`GGACGGAA` gave an E-score of -0.071.
